# Experimental data gathered from unrelated publications.
# Numbered parts are unrelated; each lists some results of a single study. Values joined by “and” are separate records of one study, mostly repeats; a detail may differ.
# UniProt Q15569, sequence (whole entry, looked up): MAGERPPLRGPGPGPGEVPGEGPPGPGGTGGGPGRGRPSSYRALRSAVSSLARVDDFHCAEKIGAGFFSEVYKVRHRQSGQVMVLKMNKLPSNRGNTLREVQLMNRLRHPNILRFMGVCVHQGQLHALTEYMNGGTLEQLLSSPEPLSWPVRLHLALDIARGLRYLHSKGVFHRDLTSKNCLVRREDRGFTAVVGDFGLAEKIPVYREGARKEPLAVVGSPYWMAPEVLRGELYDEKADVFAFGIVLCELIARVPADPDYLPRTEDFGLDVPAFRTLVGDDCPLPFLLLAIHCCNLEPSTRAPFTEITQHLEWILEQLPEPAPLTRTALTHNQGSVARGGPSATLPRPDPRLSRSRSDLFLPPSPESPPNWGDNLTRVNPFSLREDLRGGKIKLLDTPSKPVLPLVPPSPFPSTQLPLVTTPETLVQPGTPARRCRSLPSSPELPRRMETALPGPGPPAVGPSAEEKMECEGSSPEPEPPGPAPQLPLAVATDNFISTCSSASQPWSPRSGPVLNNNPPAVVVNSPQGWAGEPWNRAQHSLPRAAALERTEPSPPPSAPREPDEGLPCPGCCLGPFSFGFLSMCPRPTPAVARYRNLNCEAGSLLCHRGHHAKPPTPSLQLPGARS
# UniProt Q9BQI3, sequence (whole entry, looked up): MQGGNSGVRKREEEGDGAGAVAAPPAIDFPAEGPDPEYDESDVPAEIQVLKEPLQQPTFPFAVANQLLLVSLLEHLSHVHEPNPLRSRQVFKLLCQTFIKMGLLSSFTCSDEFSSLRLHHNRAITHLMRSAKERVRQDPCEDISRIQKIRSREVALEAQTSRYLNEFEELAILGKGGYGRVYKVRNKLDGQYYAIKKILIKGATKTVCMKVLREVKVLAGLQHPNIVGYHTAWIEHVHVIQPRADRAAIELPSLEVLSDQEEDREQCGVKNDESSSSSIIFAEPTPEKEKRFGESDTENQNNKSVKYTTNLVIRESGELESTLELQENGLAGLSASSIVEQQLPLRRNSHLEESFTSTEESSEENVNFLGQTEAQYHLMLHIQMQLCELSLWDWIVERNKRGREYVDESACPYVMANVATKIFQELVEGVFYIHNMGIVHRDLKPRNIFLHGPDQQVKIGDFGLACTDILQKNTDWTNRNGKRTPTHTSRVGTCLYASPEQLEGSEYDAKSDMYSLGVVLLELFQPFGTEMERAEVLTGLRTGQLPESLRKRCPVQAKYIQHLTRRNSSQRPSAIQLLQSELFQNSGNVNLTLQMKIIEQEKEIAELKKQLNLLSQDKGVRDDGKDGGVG
# UniProt P48147, sequence (whole entry, looked up): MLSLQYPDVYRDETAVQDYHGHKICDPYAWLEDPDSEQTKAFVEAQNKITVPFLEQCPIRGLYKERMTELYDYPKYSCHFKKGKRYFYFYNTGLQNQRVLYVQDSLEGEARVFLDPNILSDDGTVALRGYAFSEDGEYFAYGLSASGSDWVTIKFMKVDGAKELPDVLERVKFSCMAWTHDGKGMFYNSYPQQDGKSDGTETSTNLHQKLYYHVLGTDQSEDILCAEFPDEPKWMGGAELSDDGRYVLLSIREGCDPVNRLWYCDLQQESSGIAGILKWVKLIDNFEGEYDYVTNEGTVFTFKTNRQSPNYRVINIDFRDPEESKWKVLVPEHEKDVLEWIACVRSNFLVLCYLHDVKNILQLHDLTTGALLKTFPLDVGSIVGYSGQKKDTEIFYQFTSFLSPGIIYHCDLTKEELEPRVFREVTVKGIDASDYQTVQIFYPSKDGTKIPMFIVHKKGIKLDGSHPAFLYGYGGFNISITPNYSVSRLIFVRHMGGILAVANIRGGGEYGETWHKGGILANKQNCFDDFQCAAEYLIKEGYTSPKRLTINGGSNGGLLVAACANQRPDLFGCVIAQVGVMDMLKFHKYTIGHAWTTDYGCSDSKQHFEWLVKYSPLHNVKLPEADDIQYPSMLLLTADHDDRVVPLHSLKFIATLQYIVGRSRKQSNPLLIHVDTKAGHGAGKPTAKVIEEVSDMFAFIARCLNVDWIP
# UniProt P21580, sequence (whole entry, looked up): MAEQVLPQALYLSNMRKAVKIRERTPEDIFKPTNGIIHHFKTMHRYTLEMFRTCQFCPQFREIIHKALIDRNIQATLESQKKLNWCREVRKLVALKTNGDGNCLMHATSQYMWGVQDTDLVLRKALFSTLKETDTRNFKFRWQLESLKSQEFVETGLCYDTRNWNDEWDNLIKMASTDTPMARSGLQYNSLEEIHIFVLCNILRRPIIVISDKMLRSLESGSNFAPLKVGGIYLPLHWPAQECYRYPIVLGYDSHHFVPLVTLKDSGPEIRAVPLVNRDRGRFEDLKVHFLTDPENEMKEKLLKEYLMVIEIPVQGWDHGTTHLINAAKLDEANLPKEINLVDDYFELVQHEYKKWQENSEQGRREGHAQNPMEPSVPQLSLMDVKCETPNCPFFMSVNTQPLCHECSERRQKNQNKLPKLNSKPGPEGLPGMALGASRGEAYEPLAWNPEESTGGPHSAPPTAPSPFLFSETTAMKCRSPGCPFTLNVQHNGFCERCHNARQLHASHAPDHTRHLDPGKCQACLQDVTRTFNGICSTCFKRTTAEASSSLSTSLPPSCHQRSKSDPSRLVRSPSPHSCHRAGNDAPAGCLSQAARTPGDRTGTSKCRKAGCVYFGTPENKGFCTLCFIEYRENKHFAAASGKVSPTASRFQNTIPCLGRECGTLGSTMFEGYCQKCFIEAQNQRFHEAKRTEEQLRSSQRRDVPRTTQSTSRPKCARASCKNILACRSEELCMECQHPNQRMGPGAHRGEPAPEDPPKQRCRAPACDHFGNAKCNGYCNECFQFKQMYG
# UniProt P49336, sequence (whole entry, looked up): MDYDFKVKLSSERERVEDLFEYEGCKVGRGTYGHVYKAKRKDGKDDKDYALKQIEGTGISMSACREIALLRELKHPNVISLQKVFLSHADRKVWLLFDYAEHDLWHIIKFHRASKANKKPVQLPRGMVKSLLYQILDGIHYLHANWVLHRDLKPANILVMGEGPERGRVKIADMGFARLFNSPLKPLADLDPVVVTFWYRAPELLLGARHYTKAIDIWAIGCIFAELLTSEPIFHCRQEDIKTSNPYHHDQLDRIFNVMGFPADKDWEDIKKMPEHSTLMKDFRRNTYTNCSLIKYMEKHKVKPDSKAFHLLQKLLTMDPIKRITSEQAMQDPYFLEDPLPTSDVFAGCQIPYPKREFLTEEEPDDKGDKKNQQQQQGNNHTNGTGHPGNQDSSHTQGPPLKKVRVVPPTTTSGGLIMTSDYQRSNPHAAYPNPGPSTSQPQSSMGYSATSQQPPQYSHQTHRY
# UniProt P23458, sequence (whole entry, looked up): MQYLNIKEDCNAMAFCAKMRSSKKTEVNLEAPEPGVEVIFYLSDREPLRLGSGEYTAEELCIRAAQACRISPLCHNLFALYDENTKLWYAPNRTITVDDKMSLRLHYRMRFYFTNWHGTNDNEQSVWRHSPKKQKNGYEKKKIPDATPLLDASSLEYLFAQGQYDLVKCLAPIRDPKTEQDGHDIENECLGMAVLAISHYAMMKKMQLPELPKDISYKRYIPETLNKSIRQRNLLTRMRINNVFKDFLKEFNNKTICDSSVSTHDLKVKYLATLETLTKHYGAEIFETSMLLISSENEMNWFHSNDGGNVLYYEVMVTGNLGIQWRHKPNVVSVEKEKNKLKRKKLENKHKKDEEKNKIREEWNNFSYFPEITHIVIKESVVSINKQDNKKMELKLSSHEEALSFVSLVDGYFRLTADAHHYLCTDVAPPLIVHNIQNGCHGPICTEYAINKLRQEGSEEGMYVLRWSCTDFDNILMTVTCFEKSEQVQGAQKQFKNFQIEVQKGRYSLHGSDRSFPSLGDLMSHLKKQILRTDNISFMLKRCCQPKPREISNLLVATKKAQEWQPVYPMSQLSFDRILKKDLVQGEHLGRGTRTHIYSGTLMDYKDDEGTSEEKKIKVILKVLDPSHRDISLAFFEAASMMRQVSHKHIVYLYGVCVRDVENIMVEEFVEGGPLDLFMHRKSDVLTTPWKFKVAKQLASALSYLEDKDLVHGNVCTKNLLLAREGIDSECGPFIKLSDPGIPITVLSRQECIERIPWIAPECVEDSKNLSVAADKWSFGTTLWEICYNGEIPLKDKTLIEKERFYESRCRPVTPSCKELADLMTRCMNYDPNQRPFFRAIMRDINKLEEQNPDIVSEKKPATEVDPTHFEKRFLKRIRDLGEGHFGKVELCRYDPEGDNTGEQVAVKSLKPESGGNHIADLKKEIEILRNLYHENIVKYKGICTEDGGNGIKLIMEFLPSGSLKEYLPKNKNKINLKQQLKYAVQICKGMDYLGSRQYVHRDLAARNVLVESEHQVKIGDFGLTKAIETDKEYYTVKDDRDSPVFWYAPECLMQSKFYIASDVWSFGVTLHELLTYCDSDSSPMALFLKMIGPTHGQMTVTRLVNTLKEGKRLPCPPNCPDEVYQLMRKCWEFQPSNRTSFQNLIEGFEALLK

# Sample 1
# SMILES: CCOC(=O)c1ccc(OC(=O)CCCCCNC(=N)N)cc1
# Concentration: 10 µM
target,test,inhibition [%]
"Genome polyprotein (Hepatitis C virus genotype 1b, UniProt Q9WMX2)","protease activity, inhibitor",29
"Prolyl endopeptidase (PREP, Homo sapiens, UniProt P48147)",,27
"Genome polyprotein, NS3 protease (Hepatitis C virus genotype 1b, UniProt Q9WMX2, R1181Q)",,12
"Beta-secretase 1 (BACE1, Homo sapiens, UniProt P56817)",,0
"TNFAIP3 (Homo sapiens, UniProt P21580)","enzyme activity, inhibitor",4
"Genome polyprotein, NS3 protease (Hepatitis C virus genotype 1b, UniProt Q9WMX2, R1181K)",,0
"Caspase-6 (CASP6, Homo sapiens, UniProt P55212)","enzyme activity, inhibitor",0

# Sample 2
# Structure (SMILES): Cc1ncsc1-c1ccc([C@H](C)NC(=O)[C@@H]2C[C@@H](O)CN2C(=O)[C@@H](NC(=O)CNC(=O)c2ccc(F)c(-c3ccc(N4C[C@@H](C)N(C)[C@@H](C)C4)c(NC(=O)c4c[nH]c(=O)cc4C(F)(F)F)c3)c2)C(C)(C)C)cc1
# Cell line: MV4-11
# Method: ATPlite
# Time: 5 days
# Relative to: DMSO
conditions,viability
0.00271 µM,67.5% and 62.9%
0.0147 µM,41.5% and 31.1% and 47.1% and 37%
0.185 µM,13.9% and 14.3% and 10.8%
0.0012 µM,73.3% and 82.9% and 118% and 99.2%
0.43 µM,8.16% and 6.25% and 7.58% and 4.23%

# Sample 3
# Target: Calcium/calmodulin-dependent protein kinase type II subunit alpha (CAMK2A, Homo sapiens, UniProt Q9UQM7)
# UniProt Q9UQM7, sequence (whole entry, looked up): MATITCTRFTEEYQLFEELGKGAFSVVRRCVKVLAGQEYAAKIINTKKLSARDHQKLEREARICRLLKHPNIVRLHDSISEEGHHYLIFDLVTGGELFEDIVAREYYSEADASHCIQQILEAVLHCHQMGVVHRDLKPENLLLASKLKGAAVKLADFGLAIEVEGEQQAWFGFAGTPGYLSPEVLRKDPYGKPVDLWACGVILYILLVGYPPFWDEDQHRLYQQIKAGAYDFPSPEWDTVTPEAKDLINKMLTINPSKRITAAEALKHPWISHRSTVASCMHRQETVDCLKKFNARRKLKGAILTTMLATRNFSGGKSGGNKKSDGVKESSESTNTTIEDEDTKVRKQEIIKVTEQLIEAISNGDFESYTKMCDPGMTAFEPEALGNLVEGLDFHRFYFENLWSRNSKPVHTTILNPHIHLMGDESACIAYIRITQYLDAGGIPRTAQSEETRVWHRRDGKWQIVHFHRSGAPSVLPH
# Observed: enzyme activity
# Action: inhibitor
# Concentration: 10 µM
SMILES,inhibition
C[C@@H]1CC[C@@]2(OC1)O[C@H]1[C@@H](O)[C@H]3[C@@H]4CC[C@H]5C[C@@H](O[C@@H]6O[C@H](CO)[C@H](O[C@@H]7O[C@H](CO)[C@@H](O)[C@H](O[C@@H]8OC[C@@H](O)[C@H](O)[C@H]8O)[C@H]7O[C@@H]7O[C@H](CO)[C@H](O)[C@H](O[C@@H]8O[C@H](CO)[C@@H](O)[C@H](O)[C@H]8O)[C@H]7O)[C@H](O)[C@H]6O)[C@H](O)C[C@]5(C)[C@H]4CC[C@]3(C)[C@H]1[C@@H]2C,-25%
CN(C)C(=O)Oc1cc(OC(=O)N(C)C)cc(C(O)CNC(C)(C)C)c1 (centres unmarked),-5%
CCCCC/C=C/C/C=C/CCCCCCCC(=O)O[C@H](COC(=O)CCCCCCCCCCCCCCC)COP(=O)([O-])OCC[N+](C)(C)C,13%
COc1ccc(C=O)cc1,50%
C[C@]12CC[C@H]3[C@@H](CC[C@@H]4C[C@@H](O)CC[C@@]43CO)[C@@]1(O)CC[C@@H]2c1ccc(=O)oc1,-87%

# Sample 4
# SMILES: N#CC1(c2ccccn2)CCN(Cc2cc(C(=O)O)c(=O)n3ccccc23)CC1
# Observed: cell-free assay
# Method: competition with immobilised ligand
# Concentration: 1 µM
target,remaining binding [%]
"Dual specificity testis-specific protein kinase 1 (TESK1, Homo sapiens, UniProt Q15569)",100
"Tyrosine-protein kinase JAK1, JH1 (JAK1, Homo sapiens, UniProt P23458)",100
"Cyclin-dependent kinase 8 (CDK8, Homo sapiens, UniProt P49336)",100
"Phosphorylase b kinase gamma catalytic chain, liver/testis isoform (PHKG2, Homo sapiens, UniProt P15735)",100
"Uncharacterized serine/threonine-protein kinase SBK3 (SBK3, Homo sapiens, UniProt P0C264)",72
"Eukaryotic translation initiation factor 2-alpha kinase 1 (EIF2AK1, Homo sapiens, UniProt Q9BQI3)",86
"Receptor-type tyrosine-protein kinase FLT3 (FLT3, Homo sapiens, UniProt P36888)",85
"Hormonally up-regulated neu tumor-associated kinase (HUNK, Homo sapiens, UniProt P57058)",100
"Mitogen-activated protein kinase kinase kinase 7 (MAP3K7, Homo sapiens, UniProt O43318)",90
"Ribosomal protein S6 kinase alpha-3, N-terminal kinase domain (RPS6KA3, Homo sapiens, UniProt P51812)",81
"Activated CDC42 kinase 1 (TNK2, Homo sapiens, UniProt Q07912)",99
"Serine/threonine-protein kinase WNK4 (WNK4, Homo sapiens, UniProt Q96J92)",75
"Mast/stem cell growth factor receptor Kit (KIT, Homo sapiens, UniProt P10721, D816V)",100
"Serine/threonine-protein kinase 38-like (STK38L, Homo sapiens, UniProt Q9Y2H1)",80
"Serine/threonine-protein kinase Sgk2 (SGK2, Homo sapiens, UniProt Q9HBY8)",86
"Serine/threonine-protein kinase 38 (STK38, Homo sapiens, UniProt Q15208)",93
"Serine/threonine-protein kinase tousled-like 1 (TLK1, Homo sapiens, UniProt Q9UKI8)",97
"Receptor-type tyrosine-protein kinase FLT3 (FLT3, Homo sapiens, UniProt P36888, ITD)",92
"BMP-2-inducible protein kinase (BMP2K, Homo sapiens, UniProt Q9NSY1)",95
"Proto-oncogene tyrosine-protein kinase Src (SRC, Homo sapiens, UniProt P12931)",100
"Protein kinase C delta type (PRKCD, Homo sapiens, UniProt Q05655)",100
"Epidermal growth factor receptor (EGFR, Homo sapiens, UniProt P00533, G719S)",90
"Serine/threonine-protein kinase PLK4 (PLK4, Homo sapiens, UniProt O00444)",90
"Receptor-type tyrosine-protein kinase FLT3 (FLT3, Homo sapiens, UniProt P36888, D835V)",100
"Phosphatidylinositol 4,5-bisphosphate 3-kinase catalytic subunit alpha isoform (PIK3CA, Homo sapiens, UniProt P42336, M1043I)",91

# Sample 5
# Cell line: HEK-293T/ACE2
# Concentration: 10 µM
# Time: 16 h
# Relative to: vehicle
Structure (SMILES),viability [%]
NS(=O)(=O)c1cc2c(cc1Cl)NCNS2(=O)=O,102
COc1cc(NC(C)CCCN)c2ncccc2c1 (centres unmarked),102
Cc1nnc(SCC2=C(C(=O)O)N3C(=O)[C@@H](NC(=O)Cn4cnnn4)[C@H]3SC2)s1,96.4
Cc1nc(-c2ccc(OCC(C)C)c(C#N)c2)sc1C(=O)O,104
Nc1nc(O)c2ncn(COC(CO)CO)c2n1,97.4
Cc1cn([C@H]2C=C[C@@H](CO)O2)c(=O)[nH]c1=O,98.3
CCN(CC)C(=O)/C(C#N)=C/c1cc(O)c(O)c([N+](=O)[O-])c1,101
C[N+]12CCC(CC1)C(OC(=O)C(O)(c1ccccc1)c1ccccc1)C2 (centres unmarked),105
CC(C)N1CCN(c2ccc(OCC3COC(Cn4cncn4)(c4ccc(Cl)cc4Cl)O3)cc2)CC1 (centres unmarked),91.6
O=c1[nH]c(=O)n([C@H]2C[C@H](O)[C@@H](CO)O2)cc1C(F)(F)F,75.1
CCn1cc(C(=O)O)c(=O)c2ccc(C)nc21,104
CCN(CC)C(=O)N1CCN(C)CC1,101
O=C(O)Cc1ccccc1Nc1c(Cl)cccc1Cl,103
COc1ccc(C(=O)CC(=O)c2ccc(C(C)(C)C)cc2)cc1,101

# Sample 6
# Target: Diamine acetyltransferase 1 (Homo sapiens, UniProt P21673)
# Action: inhibitor
# Concentration: 10 µM
# Relative to: control
# Construct (P21673 1-171): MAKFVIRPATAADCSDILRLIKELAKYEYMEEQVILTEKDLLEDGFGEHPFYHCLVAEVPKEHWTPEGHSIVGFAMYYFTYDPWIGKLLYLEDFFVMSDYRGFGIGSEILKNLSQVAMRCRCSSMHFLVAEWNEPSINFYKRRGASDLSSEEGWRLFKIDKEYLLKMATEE
Structure (SMILES),remaining activity
CC(C)=CCC/C(C)=C/CC/C(C)=C/CC[C@]1(C)CCc2cc(O)c(C)c(C)c2O1,104%
O=c1ccc2cc(O[C@@H]3O[C@H](CO)[C@@H](O)[C@H](O)[C@H]3O)c(O)cc2o1,85.7%
COc1cc2c3c(c1OC)-c1ccccc1C[C@H]3N(C)CC2,110%

# Some of these lines once more (sample 5):
Structure (SMILES),viability [%]
Cc1cn([C@H]2C=C[C@@H](CO)O2)c(=O)[nH]c1=O,98.3
O=C(O)Cc1ccccc1Nc1c(Cl)cccc1Cl,103
COc1cc(NC(C)CCCN)c2ncccc2c1 (centres unmarked),102
CCN(CC)C(=O)N1CCN(C)CC1,101
CC(C)N1CCN(c2ccc(OCC3COC(Cn4cncn4)(c4ccc(Cl)cc4Cl)O3)cc2)CC1 (centres unmarked),91.6
